Measurements gathered from unrelated publications.
Lines come from different studies, so protocols differ. Values joined by “and” are separate records of one study, mostly repeats; a detail may differ. Numbers after ± are the reported error. In brackets after ≈: the same amount, converted by molar mass.

Under “adverse event Rash”, `O=C(Nc1ccccc1)C1CCN(C(=O)Oc2cccnc2)CC1` is recorded as 0% (healthy women; oral, 100 mg, 9 days).
`CC1(C)C(C=C(Cl)Cl)C1C(=O)OC(C#N)c1ccc(F)c(Oc2ccccc2)c1` (centres unmarked) — result for “enzyme contribution to clearance”: 0.21% (item: CYP3A5; human, age 1 year, recombinant human CYP3A5; 0.1 µM).
Under tolerability, `COc1ccc(F)cc1C(=O)NCc1ccc(-c2nn([C@@H](C)C(F)(F)F)c(N)c2C(N)=O)cc1` is recorded as “not toxic” (mouse, 4 lymphoma xenograft models; dose not given).
With `CCc1ccc(CC/C=C/c2ccc3c(c2)C(=O)CC3)cc1` the TG was 0.4 mM (Sprague-Dawley rat, female; oral, 450 mg/kg/day, 14 days).
`N.N.[Cl][Pt][Cl]` gave an ALT of 53 ± 14 U/L (nude mice, serum; dose not given, 10 days).
`C=CC(=O)N1CCC(c2ccc(C(N)=O)c(-c3ccc(Oc4ccccc4)cc3)n2)CC1`: “incidence of fatal serious TRAEs” 0% (CTCAE 4.03; patients with relapsed/refractory MCL; oral, dose not given, total).
For `[O-][S+]1CCc2nc(N3CCC(c4ncc(Cl)cn4)CC3)nc(NC3(CO)CCC3)c21` (centres unmarked), “Proctalgia adverse events” read 10% (idiopathic pulmonary fibrosis patients; 18 mg twice daily).
For `CCCCCCCCCCCCCCCC(=O)N[C@@H](CCC(=O)NCCCC[C@H](NC(=O)[C@H](CC(=O)O)NC(=O)[C@H](CO)NC(=O)[C@@H](NC(=O)[C@H](Cc1ccccc1)NC(=O)[C@@H](NC(=O)CNC(=O)[C@H](CCC(N)=O)NC(=O)[C@H](CO)NC(=O)[C@@H](N)Cc1c[nH]cn1)[C@@H](C)O)[C@@H](C)O)C(=O)N[C@@H](CO)C(=O)N[C@@H](CCC(=O)O)C(=O)N[C@@H](Cc1ccc(O)cc1)C(=O)N[C@@H](CC(C)C)C(=O)N[C@@H](CC(=O)O)C(=O)N[C@@H](CO)C(=O)N[C@@H](CCC(=O)O)C(=O)N[C@@H](CCCNC(=N)N)C(=O)N[C@@H](C)C(=O)N[C@@H](CCCNC(=N)N)C(=O)N[C@@H](CC(=O)O)C(=O)N[C@@H](Cc1ccccc1)C(=O)N[C@H](C(=O)N[C@@H](C)C(=O)N[C@@H](Cc1c[nH]c2ccccc12)C(=O)N[C@@H](CC(C)C)C(=O)N[C@@H](CCC(=O)O)C(=O)N[C@@H](C)C(=O)NCC(=O)NCC(=O)O)C(C)C)C(=O)O`, “treatment-related adverse events” read 0% (item: Hyperglycaemia; humans CrCl 45 to 60 mL/min; subcutaneous, 100 µg single dose).
Under “patients with TRAE grade ≥3”, `CC(=O)c1c(C)c2cnc(Nc3ccc(C4CCN(CCS(C)(=O)=O)CC4)cn3)nc2n(C2CCCC2)c1=O` is recorded as 66.7% (HR+/HER2- advanced breast cancer patients; oral, 200 mg).
`C[C@H]1CN(C(=O)CC#N)[C@]12CCN(c1ncnc3[nH]ccc13)C2` — result for “AUC at NOAEL”: 15200 ng·h/mL (rat, female; oral, 30 mg/kg repeated, 3 months).
With `C[C@H]1COCCN1c1nc(NCc2cccnc2C(F)(F)F)c2cccnc2n1` the QRS change was 11.5% (anaesthetized rat; intravenous, 10 mg/kg; relative to: control).
Under “serum free thyroxine”, `Clc1ccc(-c2ccccc2)cc1` is recorded as 38 ± 16 pmol/L (rat Sprague-Dawley female, serum; inhalation, 23 µg/rat, 2 h).
`CN1CCN(S(=O)(=O)c2cc([N+](=O)[O-])ccc2N(CCOS(C)(=O)=O)CCOS(C)(=O)=O)CC1` gave a concentration of 80 nM (NSG mice female, plasma; intraperitoneal, 5 mg/kg, 0.75 h).
`Cc1cccc(Cn2nc(C3CC3)c3c(NC(=O)c4cnc5cc(OCCN6CCN(C)CC6)ccn45)cccc32)n1`: “all-cause adverse events” 15.8% (CTCAE v4.03, item: decreased appetite; PD-1/PD-L1 inhibitor-refractory patients; oral, dose not given, together with: pembrolizumab IV every 3 weeks).
For `COc1ccc2nc3cc(Cl)ccc3c(Nc3cc(CN4CCCC4)c(O)c(CN4CCCC4)c3)c2n1`, “mean platelet volume” read 6.01 fL (mouse, blood; oral, 57 mg/kg, tolerability, mean).
`COc1ccc(-c2c(-c3ccc(C#N)c(F)c3)nc(N3CCC(N)CC3)n(C)c2=O)cc1F`: “treatment-related adverse event incidence” 0% (item: Pruritus; relapsed/refractory marginal zone lymphoma patients; oral, 60 mg, grade 3 to 4, dose expansion).
`Cn1c(=O)c2c(ncn2C)n(C)c1=O` gave a donor concentration of 148 ± 5.2 µM (PAMPA; pre-coated trilayer membrane; 200 µM, 5 h, pH 7.4, donor plate, PBS).
Under “abdominal pain incidence”, `CO[C@H]1C[C@@H]2CC[C@@H](C)[C@@](O)(O2)C(=O)C(=O)N2CCCC[C@H]2C(=O)O[C@H]([C@H](C)C[C@@H]2CC[C@@H](OC(=O)NCCOCCOCCOCCOCCOCCOCCOCCOCCC(=O)N3CCc4cc(Cn5nc(-c6ccc7oc(N)nc7c6)c6c(N)ncnc65)ccc4C3)[C@H](OC)C2)C[C@@H](O)[C@H](C)/C=C(\C)[C@@H](O)[C@@H](OC)C(=O)[C@H](C)C[C@H](C)/C=C/C=C/C=C/1C` is recorded as 16.7% (patients with advanced solid tumours; intravenous, 6 mg weekly, any grade).
`CC(C)[C@@H]1NC(=O)CNC(=O)[C@H](CC(N)=O)NC(=O)[C@H](CCCNC(=N)N)NC(=O)[C@H](Cc2ccc(O)cc2)NC(=O)[C@H](C(C)C)NC(=O)[C@@H](NC(=O)[C@@H](NC(=O)[C@H](CC(N)=O)NC(=O)[C@H](Cc2c[nH]c3ccccc23)NC(=O)[C@H](C)NC(=O)[C@H](Cc2ccccc2)NC(=O)CN)C(C)C)CSSC[C@@H](C(=O)N[C@@H](Cc2cnc[nH]2)C(=O)N[C@@H](CCCNC(=N)N)C(=O)N[C@@H](CCCNC(=N)N)C(=O)N[C@@H](C)C(=O)N[C@@H](CC(N)=O)C(N)=O)NC(=O)[C@H](C(C)C)NC(=O)[C@H](CCCNC(=N)N)NC1=O` has a basophils of 1.58 ± 0.14% (ICR mice, blood; intraperitoneal, 10 mg/kg, day 5).
`COc1ccnc(C(=O)N[C@H]2COC(=O)[C@H](Cc3ccccc3)[C@@H](OC(=O)C(C)C)[C@H](C)OC2=O)c1OCOC(=O)C(C)C` gave a DT50 of 2.65 days (aerobic dark soil incubation; clay soil; 20 °C, modelling endpoint).
`COc1ncccc1-c1cnn2ccc(N3CCN(C(=O)OC(C)C)CC3)nc12` gave a concentration of 1800 nM (rat, plasma; oral, 30 mg/kg, 1.5 h, together with: yohimbine pretreatment).
For `O=C1Nc2cc3[nH]nc(-c4ccncc4)c3cc2CN1Cc1ccccc1`, “patients with blurred vision” read 0% (CTCAE v4.03; advanced solid tumour patients; intravenous, 0.9 mg/kg, schedules 1/2).
For `CCCC(CCC)NC(=O)c1ccc2c(c1)OCO2`, the PCE/NCE ratio was 0.9 (Swiss albino CD-1 mice, male, bone marrow; intraperitoneal, 700 mg/kg, 48 h).
For `C[C@]1(CO)Cc2ncn(-c3ccc(C#N)c(Cl)c3)c2C(=O)O1`, “drug-related involuntary muscle contractions” read 2.1% (human; all doses, European single ascending dose).
For `Cn1cc(-c2nc(N[C@@H]3CCCC[C@@H]3N)c(F)c3c2C(=O)NC3)cn1`, the adverse events was 43% (epistaxis; patients with relapsed or refractory AML; oral, 100 mg once daily).
`NC(=O)[C@H]1CCN(c2ncnc(N)c2F)C[C@@H]1N1CCC[C@@H](Nc2cc(Cl)cc(C(F)(F)F)c2)C1=O` — result for “grade ≥3 platelet decrease”: 0% (B-cell malignancy patients; oral, 410 mg twice daily, dose).
`O=S(=O)(Nc1ccccc1)c1ccc(NC(=S)Nc2ccccc2)cc1` — result for “serum enzyme activity”: 65.5 U/L (item: ALT; female mouse, blood; oral, 80 mg/kg daily, 14 days).
`CC(C)CC(=O)OC[C@H]1O[C@@](C#N)(c2ccc3c(N)ncnn23)[C@H](O)[C@@H]1O` gave a fraction bound of 0.7 (dog plasma; 0.9 to 90 µM).
`COc1cc2c(OCCCC#N)c3c(c(-c4ccc5c(c4)OCO5)c2cc1OC)C(=O)OC3` gave a CL/F of 0.311 L/h (mouse; oral).
For `O=C(O)CCCOc1ccc(F)cc1-c1cc(-c2ccccc2C(F)(F)F)n(-c2ccccc2)n1`, the blood chemistry was 95.7 ± 13.5 mg/dL (item: Glu; Crl:CD(SD) rats, female, blood; iv, 25 µg/kg, 1 day).
`C[C@@H](NC(=O)N1C(=O)[C@H](Cc2ccnc(N)c2)[C@H]1C(=O)O)C1CCCCC1`: “incidence of elevated blood uric acid” 0% (healthy adult Chinese volunteers; continuous intravenous infusion, 1.0 mg/kg/h, 5-day infusion, CTCAE 5.0 grading).
With `COc1cc(Nc2ncc(F)c(Nc3ccc4c(n3)NC(=O)C(C)(C)O4)n2)cc(OC)c1OC` the solubility was 57.1 µM (≈ 26.9 µg/mL) (kinase assay buffer; 24 h, 0.3% DMSO).
The dermal uptake of `CC(C)(c1ccccc1)c1cc(-n2nc3ccccc3n2)c(O)c(C(C)(C)c2ccccc2)c1` is reported as 0.6 ng/kg body weight/day (exposure assessment; human, age 3-6 years, sunscreen).
With `CC(C)C[C@H](NC(=O)[C@H](CCCCN)NC(=O)OCC1c2ccccc2-c2ccccc21)C(=O)N[C@H](C(=O)N[C@@H](Cc1ccccc1)C(=O)N[C@@H](Cc1ccccc1)C(=O)N[C@@H](CCCCN)C(=O)NCC(=O)N[C@@H](Cc1ccccc1)C(=O)N[C@@H](C)C(=O)N[C@@H](Cc1c[nH]c2ccccc12)C(=O)N[C@@H](CC(N)=O)C(=O)N[C@H](C(=O)N[C@H]1CSSC[C@@H](C(=O)N[C@@H](Cc2c[nH]cn2)C(=O)N[C@@H](CCCNC(=N)N)C(=O)N[C@@H](CCCNC(=N)N)C(=O)N[C@@H](C)C(=O)N[C@@H](CC(N)=O)C(N)=O)NC(=O)[C@H](C(C)C)NC(=O)[C@H](CCCNC(=N)N)NC(=O)[C@H](C(C)C)NC(=O)CNC(=O)[C@H](CC(N)=O)NC(=O)[C@H](CCCNC(=N)N)NC(=O)[C@H](Cc2ccc(O)cc2)NC(=O)[C@H](C(C)C)NC1=O)C(C)C)C(C)C` the remaining peptide was 61.3% and 66.1% and 63.2% (HPLC; mouse mammary gland homogenate; 2560 µM, 10.00 h, 37 °C, 50 mg/mL tissue).
`COc1cc2c(Oc3ccc4[nH]c(C)cc4c3F)ccnc2cc1OCC1(N)CC1` — result for “grade 1 or 2 Hematochezia”: 6.7% (paediatric recurrent refractory sarcoma; 8 mg/kg).
